Published values pooled from the literature.
“And” joins repeats or separate records; there may be more than shown. ± marks the error that the study gave.
Sequence of UniProt Q14289 (whole entry, looked up): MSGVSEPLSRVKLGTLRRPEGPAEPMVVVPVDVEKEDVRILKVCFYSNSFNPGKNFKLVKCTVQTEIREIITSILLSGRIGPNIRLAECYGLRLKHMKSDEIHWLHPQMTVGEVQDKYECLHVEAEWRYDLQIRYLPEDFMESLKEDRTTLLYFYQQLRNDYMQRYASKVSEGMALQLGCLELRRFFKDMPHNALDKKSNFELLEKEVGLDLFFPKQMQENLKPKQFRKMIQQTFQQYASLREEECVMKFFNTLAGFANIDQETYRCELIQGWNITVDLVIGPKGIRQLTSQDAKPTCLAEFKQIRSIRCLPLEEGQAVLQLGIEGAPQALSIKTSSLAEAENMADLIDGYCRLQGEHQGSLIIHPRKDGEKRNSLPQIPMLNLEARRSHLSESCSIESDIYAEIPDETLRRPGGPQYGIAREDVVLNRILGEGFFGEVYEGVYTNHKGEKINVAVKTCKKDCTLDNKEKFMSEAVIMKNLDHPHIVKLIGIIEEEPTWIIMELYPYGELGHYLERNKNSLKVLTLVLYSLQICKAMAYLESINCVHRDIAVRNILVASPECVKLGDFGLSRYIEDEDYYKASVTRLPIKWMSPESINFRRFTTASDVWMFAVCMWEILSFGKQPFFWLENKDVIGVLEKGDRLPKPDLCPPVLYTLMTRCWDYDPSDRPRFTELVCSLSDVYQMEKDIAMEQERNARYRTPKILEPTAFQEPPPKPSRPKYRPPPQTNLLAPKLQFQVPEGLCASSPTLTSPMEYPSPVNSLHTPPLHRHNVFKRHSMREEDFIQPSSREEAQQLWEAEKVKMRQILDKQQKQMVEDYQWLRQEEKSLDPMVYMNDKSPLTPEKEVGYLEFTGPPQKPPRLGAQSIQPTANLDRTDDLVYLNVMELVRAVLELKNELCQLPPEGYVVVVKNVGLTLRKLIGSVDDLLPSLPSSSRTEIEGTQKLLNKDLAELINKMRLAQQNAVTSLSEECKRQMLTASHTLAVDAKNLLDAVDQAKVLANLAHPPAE
Sequence of UniProt Q13464 (whole entry, looked up): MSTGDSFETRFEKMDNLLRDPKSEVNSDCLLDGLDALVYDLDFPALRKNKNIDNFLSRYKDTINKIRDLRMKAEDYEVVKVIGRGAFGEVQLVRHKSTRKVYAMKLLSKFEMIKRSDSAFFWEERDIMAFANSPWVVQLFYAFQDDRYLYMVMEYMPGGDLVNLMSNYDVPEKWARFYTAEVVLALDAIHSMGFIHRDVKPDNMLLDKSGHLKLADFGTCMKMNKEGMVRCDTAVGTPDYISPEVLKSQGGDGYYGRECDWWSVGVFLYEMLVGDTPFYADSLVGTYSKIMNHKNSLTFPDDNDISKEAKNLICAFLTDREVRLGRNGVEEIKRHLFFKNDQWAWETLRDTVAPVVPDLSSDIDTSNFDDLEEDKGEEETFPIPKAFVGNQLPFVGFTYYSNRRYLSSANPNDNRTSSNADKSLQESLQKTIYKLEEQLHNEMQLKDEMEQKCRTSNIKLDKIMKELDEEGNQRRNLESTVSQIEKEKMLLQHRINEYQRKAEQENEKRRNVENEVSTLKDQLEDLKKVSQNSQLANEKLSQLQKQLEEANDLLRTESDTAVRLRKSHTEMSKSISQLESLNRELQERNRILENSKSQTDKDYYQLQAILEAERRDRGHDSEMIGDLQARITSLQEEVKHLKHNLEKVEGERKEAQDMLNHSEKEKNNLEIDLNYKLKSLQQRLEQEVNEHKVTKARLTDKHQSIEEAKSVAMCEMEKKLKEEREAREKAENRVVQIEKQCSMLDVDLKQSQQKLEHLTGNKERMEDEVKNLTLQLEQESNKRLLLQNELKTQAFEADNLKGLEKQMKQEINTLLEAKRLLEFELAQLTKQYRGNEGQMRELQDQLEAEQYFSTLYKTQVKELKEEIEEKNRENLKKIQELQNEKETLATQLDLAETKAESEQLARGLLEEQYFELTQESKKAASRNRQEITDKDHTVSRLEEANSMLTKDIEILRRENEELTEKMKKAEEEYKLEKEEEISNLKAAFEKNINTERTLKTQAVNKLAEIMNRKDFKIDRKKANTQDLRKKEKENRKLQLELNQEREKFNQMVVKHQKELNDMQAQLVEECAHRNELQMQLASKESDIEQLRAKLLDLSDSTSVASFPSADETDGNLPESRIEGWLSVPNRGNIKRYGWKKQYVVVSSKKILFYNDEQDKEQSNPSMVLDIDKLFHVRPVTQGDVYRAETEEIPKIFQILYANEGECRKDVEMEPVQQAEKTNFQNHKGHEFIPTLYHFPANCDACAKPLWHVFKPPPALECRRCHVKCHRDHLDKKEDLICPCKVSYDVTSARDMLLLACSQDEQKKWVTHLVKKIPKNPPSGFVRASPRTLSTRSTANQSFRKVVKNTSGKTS
Sequence of UniProt P49760 (whole entry, looked up): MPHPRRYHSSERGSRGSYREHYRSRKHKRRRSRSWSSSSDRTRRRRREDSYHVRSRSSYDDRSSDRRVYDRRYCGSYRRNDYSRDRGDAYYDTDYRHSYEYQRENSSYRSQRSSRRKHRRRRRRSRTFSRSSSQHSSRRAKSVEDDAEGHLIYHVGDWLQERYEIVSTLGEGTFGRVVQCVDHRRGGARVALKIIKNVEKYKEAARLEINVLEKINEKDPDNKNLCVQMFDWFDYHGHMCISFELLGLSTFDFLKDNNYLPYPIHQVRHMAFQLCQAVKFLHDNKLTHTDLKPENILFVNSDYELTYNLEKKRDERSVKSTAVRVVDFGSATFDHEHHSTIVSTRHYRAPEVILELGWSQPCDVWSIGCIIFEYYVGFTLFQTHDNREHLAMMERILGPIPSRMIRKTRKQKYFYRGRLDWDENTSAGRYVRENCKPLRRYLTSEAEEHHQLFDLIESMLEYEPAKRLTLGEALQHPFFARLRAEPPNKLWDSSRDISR

`CC(C)[C@H]1NC(=O)C[C@H]2/C=C/CCSSC[C@@H](NC1=O)C(=O)N[C@H](Cc1cccc3ccccc13)C(=O)NCC(=O)O2` gave an inhibition of -10.6% (CLK2 (Homo sapiens, UniProt P49760); enzyme activity, inhibitor; 10 µM).
`COC(=O)c1cc2c(=O)n3ccccc3nc2n1Cc1ccccc1` gave a viability of 58.4% (Vero; MTT; 25 µM, 24 (unit not given)).
`CNC(=O)C[C@H](Cc1ccncc1)NC(=O)[C@@H](Cc1cccc(Br)c1)NC(=O)[C@@H](N)Cc1ccsc1` has a viability of 1.01 and 0.942 and 0.975 (Huh-7-ACE2; CellTiter-Glo; 1.562 µM, 48 h, unit not given; relative to: DMSO).
For `O=C1NC2(CC2)COc2ncc(F)cc2[C@H]2COCCN2c2ccn3ncc1c3n2`, the reticulocytes was 1.72 ± 0.94% (Sprague-Dawley rat, female, blood; oral, 10 mg/kg/day, end of recovery, 4-week repeated-dose toxicity; relative to: red blood cells).
`CC(=O)N[C@@H](Cc1c[nH]c2ccccc12)C(=O)NCCCCCCCCCCCC(=O)NCCCC[C@@H]1NC(=O)[C@H](CCCNC(=N)N)NC(=O)[C@H](CCCNC(=N)N)NC(=O)[C@H](CCCNC(=N)N)NC(=O)[C@H](CCCNC(=N)N)NC(=O)[C@H](CCCNC(=N)N)NC1=O` has a viability of ≥ 86% (HEK-293T; MTS; concentration not given, 24 h, up to 10 µM).
The inhibition of `CS(C)(=O)=Nc1ccc(-c2ccc(-c3nc4cc(O[C@@H]5CO[C@H]6[C@@H]5OC[C@H]6O)[nH]c4cc3F)cc2)cc1` is reported as -23% (ROCK1 (Homo sapiens, UniProt Q13464); enzyme activity, inhibitor; 10 µM).
The viability of `CNC(=O)C[C@H](Cc1ccc(F)cc1)NC(=O)[C@@H](Cc1ccc(Cl)cc1Cl)NC(=O)[C@H](N)Cc1ccccc1C#N` is reported as 1.01 and 0.877 and 0.909 (Huh-7-ACE2; CellTiter-Glo; 0.0244 µM, 48 h, unit not given; relative to: DMSO).
`O=c1n(CCNCCOS(=O)(=O)c2ccccc2)c(=O)n(S(=O)(=O)c2ccccc2)c(=O)n1S(=O)(=O)c1ccccc1` has a viability of 23.7% (HUVEC; cell growth or viability, MTT; 12.5 µg/mL, 72 h).
`O=C(CCc1ccccc1)NOC(=O)OCc1ccccc1` gave a viability of > 90% (MCF7; 25 µM, 24 h).
`CNC(=O)CC[C@H](Cc1ccccc1)NC(=O)[C@@H](Cc1ccc(Cl)cc1Cl)NC(=O)[C@H](N)Cc1ccccc1[N+](=O)[O-]` gave a viability of 1.03 and 1.01 and 0.967 (Huh-7-ACE2; CellTiter-Glo; 12.5 µM, 48 h, unit not given; relative to: DMSO).
The viability of `CC[C@H](C)[C@H](NC(=O)[C@H](C)NC(=O)[C@H](CCCCN)NC(=O)[C@H](CC(C)C)NC(=O)[C@@H](N)Cc1ccccc1)C(=O)N[C@@H](CCCCN)C(=O)N[C@@H](CCCCN)C(=O)N[C@@H](Cc1ccccc1)C(=O)NCC(=O)N[C@@H](CCCCN)C(=O)N[C@@H](CCC(=O)O)C(=O)N[C@@H](Cc1ccccc1)C(=O)N[C@@H](CCCCN)C(=O)N[C@@H](CCCCN)C(=O)N[C@H](C(=O)NCC(=O)N[C@@H](C)C(=O)N[C@@H](CCCCN)C(=O)N[C@@H](CC(C)C)C(=O)N[C@@H](CCCCN)C(=O)O)[C@@H](C)CC` is reported as 93.4% (HeLa; cell growth or viability, MTT; 64 µg/mL).
`NC(=O)N/N=C/c1ccc(OCc2ccccc2)cc1` has a viability of 42% (IMR-32; MTT; 200 µg/mL, 24 h; relative to: untreated control).
With `CN(C)[C@H]1C[C@@]23CC[C@@]4(O2)C(=CC[C@]2(C)[C@@H](c5ccc6ccncc6c5)CC[C@H]24)C=C3[C@@H](O)[C@@H]1O` the inhibition was -4.3% (PTK2B (Homo sapiens, UniProt Q14289); ATP probe labelling, inhibitor, KiNativ profiling; 0.1 µM).
With `CC[C@H](C)[C@H](NC(=O)[C@H](C)NC(=O)[C@H](CCCCN)NC(=O)[C@H](CCCCN)NC(=O)[C@@H](N)CCCNC(=N)N)C(=O)N[C@@H](CCCCN)C(=O)N[C@@H](CC(C)C)C(=O)N[C@H](C(=O)N[C@@H](CCCCN)C(=O)N[C@@H](CCCCN)C(=O)N[C@@H](CC(C)C)C(=O)N[C@H](C(=O)N[C@@H](CCCCN)C(=O)N[C@@H](CCCCN)C(=O)N[C@@H](CC(C)C)C(=O)N[C@@H](CCCCN)C(=O)N[C@@H](CCCCN)C(=O)N[C@@H](C)C(=O)N[C@@H](CC(C)C)C(=O)N[C@@H](CCCCN)C(=O)O)C(C)C)C(C)C` the viability was 92.9% (HeLa; cell growth or viability, MTT; 8 µg/mL).
`COc1ccccc1-c1n[nH]c2nc(NC3CCN(C(=O)Cc4ccc(F)cc4F)CC3)ncc12` gave a relative abundance of 1.07 (bead binding, competition bead pull-down, refers to: LINJ.35.2790; Leishmania donovani axenic amastigote extract; 10 µM; relative to: vehicle).
